Measured values from different studies.
Lines come from different studies, so protocols differ. Several values in a cell are separate wells, animals, samples, runs or records. ± marks the error that the study gave.
Chain of UniProt Q9H2X3 (whole entry, looked up): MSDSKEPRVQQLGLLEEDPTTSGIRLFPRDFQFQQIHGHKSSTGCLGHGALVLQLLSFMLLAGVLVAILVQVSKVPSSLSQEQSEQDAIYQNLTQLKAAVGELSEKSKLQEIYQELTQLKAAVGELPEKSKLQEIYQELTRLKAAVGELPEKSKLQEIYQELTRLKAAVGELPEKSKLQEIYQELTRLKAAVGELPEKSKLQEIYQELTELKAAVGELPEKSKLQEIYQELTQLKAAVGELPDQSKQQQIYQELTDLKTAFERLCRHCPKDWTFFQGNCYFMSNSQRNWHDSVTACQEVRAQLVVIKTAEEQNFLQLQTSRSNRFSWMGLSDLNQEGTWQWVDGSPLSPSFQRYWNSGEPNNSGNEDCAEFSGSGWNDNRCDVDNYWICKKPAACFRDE
Chain of UniProt Q9H7M9 (whole entry, looked up): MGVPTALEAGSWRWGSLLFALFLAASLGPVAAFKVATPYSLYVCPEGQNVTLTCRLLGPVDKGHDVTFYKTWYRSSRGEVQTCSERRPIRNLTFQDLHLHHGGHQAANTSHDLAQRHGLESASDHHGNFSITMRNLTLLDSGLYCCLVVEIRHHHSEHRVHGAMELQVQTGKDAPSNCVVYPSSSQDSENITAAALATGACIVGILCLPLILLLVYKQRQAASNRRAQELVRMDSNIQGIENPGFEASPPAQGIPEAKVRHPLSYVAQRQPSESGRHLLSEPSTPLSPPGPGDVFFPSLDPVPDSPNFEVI
Chain of UniProt Q9NRM7 (whole entry, looked up): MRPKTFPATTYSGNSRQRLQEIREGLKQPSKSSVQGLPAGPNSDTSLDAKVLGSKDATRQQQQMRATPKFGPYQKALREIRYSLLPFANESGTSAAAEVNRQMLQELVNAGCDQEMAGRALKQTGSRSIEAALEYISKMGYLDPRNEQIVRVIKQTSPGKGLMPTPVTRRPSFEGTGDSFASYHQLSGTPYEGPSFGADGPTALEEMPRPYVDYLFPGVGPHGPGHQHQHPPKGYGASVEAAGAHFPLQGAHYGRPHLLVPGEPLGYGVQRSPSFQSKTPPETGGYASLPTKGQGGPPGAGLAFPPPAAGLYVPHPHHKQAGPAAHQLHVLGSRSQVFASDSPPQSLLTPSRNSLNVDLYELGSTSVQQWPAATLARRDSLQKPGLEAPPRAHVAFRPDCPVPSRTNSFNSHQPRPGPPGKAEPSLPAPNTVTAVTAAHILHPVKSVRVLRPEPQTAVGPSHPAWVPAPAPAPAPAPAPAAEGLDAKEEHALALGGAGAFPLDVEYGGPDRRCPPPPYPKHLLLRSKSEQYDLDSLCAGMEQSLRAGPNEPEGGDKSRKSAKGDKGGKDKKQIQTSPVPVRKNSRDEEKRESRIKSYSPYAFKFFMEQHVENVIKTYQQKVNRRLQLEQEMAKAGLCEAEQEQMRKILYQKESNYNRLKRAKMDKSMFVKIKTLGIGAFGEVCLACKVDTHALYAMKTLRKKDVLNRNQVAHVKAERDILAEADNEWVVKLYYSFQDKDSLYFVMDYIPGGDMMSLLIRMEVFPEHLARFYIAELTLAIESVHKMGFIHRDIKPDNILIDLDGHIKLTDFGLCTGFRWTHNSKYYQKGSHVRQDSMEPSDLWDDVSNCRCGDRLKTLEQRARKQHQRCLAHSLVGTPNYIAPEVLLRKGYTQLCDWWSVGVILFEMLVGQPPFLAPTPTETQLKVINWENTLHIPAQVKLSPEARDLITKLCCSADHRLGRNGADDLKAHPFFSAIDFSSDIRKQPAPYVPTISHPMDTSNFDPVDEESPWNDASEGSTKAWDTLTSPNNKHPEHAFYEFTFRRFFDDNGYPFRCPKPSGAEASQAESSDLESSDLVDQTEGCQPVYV
Chain of UniProt P27348 (whole entry, looked up): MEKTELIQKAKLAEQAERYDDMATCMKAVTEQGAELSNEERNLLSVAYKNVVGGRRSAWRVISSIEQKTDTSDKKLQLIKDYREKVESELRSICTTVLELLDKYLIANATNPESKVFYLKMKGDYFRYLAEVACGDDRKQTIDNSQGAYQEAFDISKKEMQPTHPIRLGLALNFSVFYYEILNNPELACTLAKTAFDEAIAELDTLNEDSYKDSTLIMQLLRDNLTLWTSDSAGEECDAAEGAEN
Chain of UniProt P83916 (whole entry, looked up): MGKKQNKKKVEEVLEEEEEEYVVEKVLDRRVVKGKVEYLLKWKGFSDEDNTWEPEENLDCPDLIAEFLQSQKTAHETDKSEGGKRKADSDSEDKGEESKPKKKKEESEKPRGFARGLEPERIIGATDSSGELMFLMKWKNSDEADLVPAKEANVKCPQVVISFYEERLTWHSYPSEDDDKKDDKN
Chain of UniProt P12004 (whole entry, looked up): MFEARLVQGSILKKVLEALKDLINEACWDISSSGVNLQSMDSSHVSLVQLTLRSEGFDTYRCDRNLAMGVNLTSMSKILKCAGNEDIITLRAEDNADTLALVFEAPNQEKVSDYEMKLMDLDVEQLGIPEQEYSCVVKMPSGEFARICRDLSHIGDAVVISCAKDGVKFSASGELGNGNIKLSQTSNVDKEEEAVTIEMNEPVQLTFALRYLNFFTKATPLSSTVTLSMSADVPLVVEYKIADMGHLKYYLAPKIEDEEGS
Chain of UniProt P97287 (152-308, looked up): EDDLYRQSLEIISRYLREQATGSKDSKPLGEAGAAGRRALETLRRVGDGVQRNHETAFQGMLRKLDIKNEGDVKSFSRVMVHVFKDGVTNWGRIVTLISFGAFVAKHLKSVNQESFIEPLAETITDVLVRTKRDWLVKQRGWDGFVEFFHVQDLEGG
Chain of UniProt P21888 (whole entry, looked up): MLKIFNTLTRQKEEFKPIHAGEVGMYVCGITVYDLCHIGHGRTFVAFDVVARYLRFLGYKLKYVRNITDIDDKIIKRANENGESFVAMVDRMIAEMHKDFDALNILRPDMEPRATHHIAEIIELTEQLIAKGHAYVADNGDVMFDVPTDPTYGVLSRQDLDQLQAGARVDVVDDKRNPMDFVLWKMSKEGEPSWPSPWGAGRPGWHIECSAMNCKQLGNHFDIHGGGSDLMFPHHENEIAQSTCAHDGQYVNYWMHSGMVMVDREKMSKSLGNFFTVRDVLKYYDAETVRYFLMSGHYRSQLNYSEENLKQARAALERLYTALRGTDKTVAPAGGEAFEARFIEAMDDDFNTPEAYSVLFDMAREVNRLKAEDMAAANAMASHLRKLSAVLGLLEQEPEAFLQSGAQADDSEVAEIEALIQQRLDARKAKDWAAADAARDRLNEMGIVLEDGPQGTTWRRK
Chain of UniProt Q14145 (whole entry, looked up): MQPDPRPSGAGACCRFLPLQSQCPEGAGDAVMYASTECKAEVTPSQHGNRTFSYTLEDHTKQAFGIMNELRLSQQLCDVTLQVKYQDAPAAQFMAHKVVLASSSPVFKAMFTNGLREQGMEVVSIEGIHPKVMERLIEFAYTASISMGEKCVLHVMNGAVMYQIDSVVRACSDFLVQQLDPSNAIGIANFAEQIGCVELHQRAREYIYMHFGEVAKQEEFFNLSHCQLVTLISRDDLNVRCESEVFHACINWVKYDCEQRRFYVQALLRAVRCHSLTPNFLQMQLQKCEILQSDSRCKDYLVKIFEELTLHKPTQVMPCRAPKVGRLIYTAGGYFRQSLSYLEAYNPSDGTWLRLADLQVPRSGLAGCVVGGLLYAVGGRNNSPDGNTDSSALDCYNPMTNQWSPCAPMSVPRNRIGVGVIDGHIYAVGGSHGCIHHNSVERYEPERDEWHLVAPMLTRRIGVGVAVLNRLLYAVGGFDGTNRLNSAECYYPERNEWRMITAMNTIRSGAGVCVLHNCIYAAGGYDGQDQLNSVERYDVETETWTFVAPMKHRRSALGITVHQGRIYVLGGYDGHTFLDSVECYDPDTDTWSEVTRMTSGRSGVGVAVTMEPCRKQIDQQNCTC
Chain of UniProt P46109 (whole entry, looked up): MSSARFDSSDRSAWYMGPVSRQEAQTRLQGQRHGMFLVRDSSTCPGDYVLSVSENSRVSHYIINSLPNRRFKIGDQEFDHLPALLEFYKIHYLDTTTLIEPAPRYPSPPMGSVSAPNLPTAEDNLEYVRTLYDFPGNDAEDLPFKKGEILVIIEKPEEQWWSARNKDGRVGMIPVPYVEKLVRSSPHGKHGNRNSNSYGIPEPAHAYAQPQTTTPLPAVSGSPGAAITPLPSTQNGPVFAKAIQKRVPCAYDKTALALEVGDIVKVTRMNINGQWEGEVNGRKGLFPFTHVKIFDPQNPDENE
Chain of UniProt Q8NEZ5 (whole entry, looked up): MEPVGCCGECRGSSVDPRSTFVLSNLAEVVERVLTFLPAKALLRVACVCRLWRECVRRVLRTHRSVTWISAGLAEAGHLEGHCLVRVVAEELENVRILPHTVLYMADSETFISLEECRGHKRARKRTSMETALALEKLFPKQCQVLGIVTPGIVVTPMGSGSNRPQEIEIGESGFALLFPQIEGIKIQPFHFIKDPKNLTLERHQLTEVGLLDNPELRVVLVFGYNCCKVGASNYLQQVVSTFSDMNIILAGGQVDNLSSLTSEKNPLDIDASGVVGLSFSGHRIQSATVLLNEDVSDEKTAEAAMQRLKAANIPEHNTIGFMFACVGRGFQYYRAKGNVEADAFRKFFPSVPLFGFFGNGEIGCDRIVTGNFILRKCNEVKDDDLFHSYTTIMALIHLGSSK
Chain of UniProt Q8NFZ8 (whole entry, looked up): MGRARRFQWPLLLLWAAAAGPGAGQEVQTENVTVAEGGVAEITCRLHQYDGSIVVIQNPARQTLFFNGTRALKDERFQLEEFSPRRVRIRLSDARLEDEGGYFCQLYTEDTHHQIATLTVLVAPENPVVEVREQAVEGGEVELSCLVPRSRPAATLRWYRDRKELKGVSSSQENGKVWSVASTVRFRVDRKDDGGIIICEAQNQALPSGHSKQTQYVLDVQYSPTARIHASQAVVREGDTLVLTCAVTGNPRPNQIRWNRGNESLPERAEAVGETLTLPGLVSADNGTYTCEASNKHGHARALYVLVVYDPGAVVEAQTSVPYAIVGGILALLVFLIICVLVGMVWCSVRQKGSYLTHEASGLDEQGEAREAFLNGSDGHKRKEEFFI

For `CC[C@H](C)[C@@H]1NC(=O)[C@@H](C)NC(=O)[C@H](CCC(=O)N[C@@H](CCCCN)C(N)=O)NC(=O)[C@@H](C)NC(=O)[C@@H](C)NC(=O)[C@H](Cc2c[nH]c3ccccc23)NC(=O)[C@H](Cc2ccc(O)cc2)NC(=O)[C@H](CCCNC(=N)N)NC(=O)[C@H](Cc2ccc(F)cc2)NC1=O`, the Kd was 0.7 µM (cysS (Escherichia coli, UniProt P21888); binding).
The Kd of `CC(=O)NC1C(O)OC(CO)C(OC2OC(CO)C(OC3OC(CO)C(O)C(O)C3O)C(O)C2O)C1O` (stereo not drawn) is reported as 1.77 µM (sly (Streptococcus suis, UniProt Q55996, S396A); binding).
For `CC(C)C[C@H](NC(=O)[C@H](CCP(=O)(O)O)NC(=O)[C@@H](NC(=O)[C@@H](NC(=O)[C@H](CCCNC(=N)N)NC(=O)[C@H](CC(C)C)NC(=O)[C@H](CO)NC(=S)Nc1ccc2c(c1)C(=O)OC21c2ccc(O)cc2Oc2cc(O)ccc21)[C@@H](C)O)C(C)C)C(=O)NCC(=O)N[C@@H](C)C(=O)NCC(=O)N[C@@H](C)C(=O)N[C@@H](Cc1c[nH]c2ccccc12)C(=O)N[C@@H](CC(C)C)C(=O)N[C@H](C(=O)N1CCC[C@H]1C(=O)N[C@@H](CCCNC(=N)N)C(=O)O)C(C)C`, the Kd was 37.5 µM (14-3-3 protein theta (Homo sapiens, UniProt P27348); binding, fluorescence anisotropy; pH 7.5, FITC-labelled phosphopeptide titration).
The Kd of `CC[C@H](C)[C@H](NC(=O)[C@H](CCC(=O)O)NC(=O)[C@H](CCCNC(=N)N)NC(=O)[C@H](C)NC(=O)[C@H](Cc1c[nH]c2ccccc12)NC(=O)[C@H](CCC(=O)O)NC(=O)[C@H](CCC(=O)O)NC(=O)[C@H](CCC(=O)O)NC(C)=O)C(=O)NCC(=O)N[C@@H](C)C(=O)N[C@@H](CCC(N)=O)C(=O)N[C@@H](CC(C)C)C(=O)N[C@@H](CCCNC(=N)N)C(=O)N[C@@H](CCCNC(=N)N)C(=O)N[C@@H](CC1CCCCC1)C(=O)N[C@@H](C)C(=O)N[C@@H](CC(=O)O)C(=O)N[C@@H](CC(=O)O)C(=O)N[C@@H](CC(C)C)C(=O)N[C@@H](CC(N)=O)C(=O)N[C@@H](C)C(=O)N[C@@H](CCC(N)=O)C(=O)N[C@@H](Cc1ccc(O)cc1)C(=O)N[C@@H](CCC(=O)O)C(=O)N[C@@H](CCCNC(=N)N)C(=O)N[C@@H](CCCNC(=N)N)C(=O)N[C@@H](CCCNC(=N)N)C(N)=O` is reported as 0.00023 µM (Induced myeloid leukemia cell differentiation protein Mcl-1 homolog, residues 152-308 (Mus musculus, UniProt P97287); binding, SPR; 0.2% DMSO).
`CC(C)C[C@H](NC(=O)[C@H](CCCCN)NC(=O)CNC(=O)[C@H](Cc1ccccc1)NC(=O)[C@H](CO)NC(=O)[C@H](Cc1c[nH]c2ccccc12)NC(=O)CNC(=O)[C@@H]1CCCN1C(=O)[C@@H](N)CC(=O)O)C(=O)N[C@@H](Cc1c[nH]cn1)C(=O)N[C@H](Cc1c[nH]c2ccccc12)C(=O)N1CCC[C@@H]1C(=O)O` gave a Kd of 2.07 µM (VSIR (Homo sapiens, UniProt Q9H7M9); binding, microscale thermophoresis).
The Kd of `CSCC[C@H](NC(=O)CNC(=O)[C@H](CCCNC(=N)N)NC(=O)[C@H](C)NC(=O)[C@@H](NC(=O)[C@H](CCC(N)=O)NC(=O)[C@H](Cc1ccc(OP(=O)(O)O)cc1)NC(=O)[C@H](C)NC(=O)[C@H](CS)NC(=O)[C@H](CO)NC(=O)[C@@H](NC(=O)[C@H](CC(C)C)NC(=O)[C@H](CC(=O)O)NC(=O)[C@H](CCCCN)NC(=O)[C@H](CO)NC(=O)[C@H](CO)NC(=O)c1ccc2c(c1)C(=O)OC21c2ccc(N(C)C)cc2Oc2cc(N(C)C)ccc21)C(C)C)C(C)C)C(=O)N[C@@H](CCC(=O)O)C(=O)N[C@@H](CC(=O)O)C(=O)O` is reported as 0.239 µM (Crk-like protein, SH2 domain (Homo sapiens, UniProt P46109); binding).
`CC=C1CN2CCc3c([nH]c4ccccc34)C2CC1C(=COC)C(=O)OC` (stereo not drawn) gave a Kd of 21.7 ± 0.46 µM (PRDX3 (Homo sapiens, UniProt P30048); binding, surface plasmon resonance).
The Kd of `C[C@H](N)C(=O)N[C@@H](CCCNC(=N)N)C(=O)N[C@H](C(=O)N[C@@H](CCCCN)C(=O)N[C@@H](CCC(N)=O)C(=O)N[C@H](C(=O)N[C@@H](C)C(=O)N[C@@H](CCCNC(=N)N)C(=O)N[C@@H](CCCCN)C(=O)N[C@@H](CO)C(=O)N[C@H](C(=O)NCC(=O)NCC(=O)N[C@@H](CCCCN)C(=O)N[C@@H](C)C(=O)N[C@@H](Cc1ccc(O)cc1)C(N)=O)[C@@H](C)O)[C@@H](C)O)[C@@H](C)O` is reported as > 500 µM (Chromobox protein homolog 1, chromodomain (Homo sapiens, UniProt P83916); ITC; pH 7.4, 25 °C).
The Kd of `O=C(N[C@@H]1c2ccccc2C[C@H]1N1CCCC1)c1ccc(-c2ccnc3[nH]ccc23)nc1` is reported as 0.445 µM (LATS2 (Homo sapiens, UniProt Q9NRM7); binding, competition with immobilised ligand).
`CC(C)C[C@@H]1NC(=O)[C@@H]2CSSC[C@@H](C(=O)NCC(=O)O)NC(=O)[C@H](Cc3ccccc3)NC(=O)CNC(=O)[C@H](CC(N)=O)NC(=O)[C@@H]3CCCN3C(=O)CNC(=O)[C@@H]3CSSC[C@H](NC(=O)[C@H](CCCNC(=N)N)NC(=O)[C@@H]4CCCN4C(=O)[C@H](Cc4c[nH]cn4)NC(=O)[C@H](CCCCN)NC(=O)[C@H](C(C)C)NC(=O)[C@H](CCCNC(=N)N)NC(=O)[C@H](CC(N)=O)NC(=O)[C@@H]4CCCN4C(=O)[C@H](CO)NC(=O)[C@H](CCC(N)=O)NC(=O)[C@@H](NC(=O)CN)CSSC[C@H](NC(=O)CNC(=O)[C@H](C)NC1=O)C(=O)N[C@@H](C(C)C)C(=O)N3)C(=O)N[C@@H](CCCCN)C(=O)N[C@@H](CCC(N)=O)C(=O)N[C@@H](CC(=O)O)C(=O)N[C@@H](CO)C(=O)N[C@@H](CC(=O)O)C(=O)N2` has a Kd of 0.647 µM (Low-density lipoprotein receptor-related protein 6, E1 domain (LRP6, Homo sapiens, UniProt O75581); binding, SPR; pH 7.5).
For `CC(C)C[C@H](NC(=O)CNC(=O)[C@H](C)NC(=O)[C@H](CC(=O)O)NC(=O)[C@H](CC(=O)O)NC(=O)[C@H](C)NC(=O)[C@@H]1CCCN1C(=O)[C@H](CCCCN)NC(=O)CNC(=O)[C@@H]1CCCN1C(=O)[C@H](C)NC(=O)[C@@H]1CCCN1C(=O)[C@H](CCC(=O)O)NC(=O)CN)C(=O)N[C@H](C(=O)O)C(C)C`, the Kd was 52 µM (F-box only protein 22 (Homo sapiens, UniProt Q8NEZ5); binding, SPR).
For `N=C(N)NCc1cn([C@@H]2[C@@H](OCCn3cc(COCCOCCOCCn4cc(-c5cc(OCCOCCO)c(C#Cc6cc(OCCOCCO)c(C#Cc7cc(OCCOCCO)c(-c8cn(CCOCCOCCOCc9cn(CCO[C@H]%10O[C@H](CO)[C@@H](O)[C@H](O)[C@@H]%10n%10cc(CNC(=N)N)nn%10)nn9)nn8)cc7OCCOCCO)cc6OCCOCCO)cc5OCCOCCO)nn4)nn3)O[C@H](CO)[C@@H](O)[C@@H]2O)nn1`, the Kd was 0.0249 µM and 0.0247 µM (C-type lectin domain family 4 member M, extracellular domain (CLEC4M, Homo sapiens, UniProt Q9H2X3); binding, surface binding; apparent Kd).
`CC(C)C[C@H](NC(=O)[C@H](Cc1c[nH]c2ccccc12)NC(=O)CNC(=O)[C@H](Cc1ccccc1)NC(=O)[C@H](CO)NC(=O)[C@H](Cc1c[nH]c2ccccc12)NC(=O)[C@H](Cc1c[nH]c2ccccc12)NC(=O)[C@@H]1CCCN1C(=O)[C@@H](N)C(C)C)C(=O)N[C@@H](Cc1c[nH]cn1)C(=O)N[C@@H](C)C(=O)N1CCC[C@H]1C(=O)O` gave a Kd of 39 µM (V-type immunoglobulin domain-containing suppressor of T-cell activation, IgV domain (VSIR, Homo sapiens, UniProt Q9H7M9); binding, microscale thermophoresis).
The Kd of `CC(=O)N[C@@H](CCCNC(=N)N)C(=O)N[C@H](C(=O)N1CCC[C@H]1C(=O)N[C@@H](COP(=O)(O)O)C(=O)N[C@@H](CC(C)C)C(=O)N1CCC[C@H]1C(=O)N[C@@H](C(=O)N1CCC[C@H]1C(c1ccccc1)c1ccccc1)C(C)C)[C@@H](C)O` is reported as 3.36 µM (YWHAZ (Homo sapiens, UniProt P63104); binding, ITC).
The Kd of `Cn1c2cccc(=O)c-2nc2ccccc21` is reported as 10.6 µM (Multidrug resistance operon repressor (mexR, Pseudomonas aeruginosa, UniProt P52003); binding, microscale thermophoresis; wild-type protein).
With `C[C@@H](O)[C@@H]1NC(=O)[C@H](CCC(=O)O)NC(=O)[C@@H]2CC(C(F)(F)F)CN2C(=O)[C@H](CC(=O)O)NC(=O)CC(C(F)(F)F)NC(=O)[C@H](CCC(=O)O)NC(=O)CNC1=O` (stereo partly drawn) the Kd was 0.0322 µM (KEAP1 (Homo sapiens, UniProt Q14145); binding, MST).
For `CC[C@H](C)[C@H](NC(=O)[C@H](CC(C)C)NC(=O)[C@H](CC(N)=O)NC(=O)[C@H](CCC(N)=O)NC(=O)[C@H](CCCNC(=N)N)NC(=O)[C@H](CCCNC(=N)N)NC(=O)[C@@H](N)CCCCN)C(=O)N[C@@H](CCCNC(=N)N)C(=O)N[C@@H](Cc1c[nH]cn1)C(=O)N[C@@H](Cc1ccccc1)C(=O)N[C@@H](Cc1ccccc1)C(=O)N[C@@H](Cc1c[nH]cn1)C(=O)N[C@@H](CO)C(=O)N[C@@H](CCCCN)C(=O)N[C@@H](CCCNC(=N)N)C(N)=O`, the Kd was > 40 µM (PCNA (Homo sapiens, UniProt P12004); binding; pH 7.4).
For `CC[C@H](C)[C@@H]1NC(=O)[C@@H]2CCCN2C(=O)[C@H](Cc2c[nH]c3ccccc23)NC(=O)[C@H](CO)NC(=O)[C@H](Cc2c[nH]c3ccccc23)NC(=O)[C@H](CC(N)=O)NC(=O)[C@H](CCCCN)NC(=O)[C@H](CCSC)NC(=O)[C@@H]2CSCCC(=O)N3CN(CN(C3)C(=O)CCSC[C@H](NC(=O)[C@H](C)N)C(=O)N3CCC[C@H]3C(=O)N[C@@H](Cc3ccccc3)C(=O)NCC(=O)N2)C(=O)CCSC[C@@H](C(=O)N[C@H](C(=O)N[C@@H](CC(N)=O)C(=O)N[C@@H](CCCCN)C(=O)N(C)CC(=O)N(C)CC(=O)N(C)CC(=O)N(C)CC(=O)N(C)CC(=O)N(C)CC(=O)N[C@@H](CCCCNC(=O)c2ccc(C(=O)O)c(-c3c4ccc(=O)cc-4oc4cc(O)ccc34)c2)C(N)=O)[C@@H](C)O)NC(=O)[C@H](Cc2c[nH]c3ccccc23)NC1=O`, the Kd was > 2 µM (Cell adhesion molecule 4 (CADM4, Homo sapiens, UniProt Q8NFZ8); fluorescence polarization).
